Experimental data of several laboratories.
Compare with care: the assays were run in different laboratories. Several values in a cell are separate wells, animals, samples, runs or records. ± marks the error that the study gave. In brackets after ≈: the same amount, converted by molar mass.

Molecule | test | test system | conditions | how to read | measurement | value
CSCC[C@@H]1NC(=O)[C@H](CC(=O)O)NC(=O)CNC(=O)[C@H](CCCNC(=N)N)NC(=O)[C@H](C)NC(=O)[C@H](CCC(=O)O)NC(=O)[C@H](CCCNC(=N)N)NC(=O)[C@@H]2CSSC[C@@H]3NC(=O)[C@H](CO)NC(=O)[C@H]([C@@H](C)O)NC(=O)[C@@H]4CCCN4C(=O)[C@H](C)NC(=O)[C@H](Cc4c[nH]c5ccccc45)NC(=O)[C@H](CC(=O)O)NC(=O)CNC(=O)[C@H](CCCNC(=N)N)NC(=O)CNC(=O)[C@H](CCC(N)=O)NC(=O)[C@@H]4CCCN4C(=O)[C@@H](NC(=O)CNC(=O)C(C)F)CSSC[C@H](NC(=O)CNC(=O)[C@H](C)NC(=O)[C@H](CC(C)C)NC(=O)[C@H](CSSC[C@@H](C(=O)NCC(N)=O)NC(=O)[C@H]([C@@H](C)O)NC(=O)[C@H](CCCNC(=N)N)NC(=O)[C@@H]4CCCN4C1=O)NC(=O)[C@H](CC(=O)O)NC(=O)[C@H](CO)NC(=O)[C@H](CC(=O)O)NC(=O)[C@H](CCC(N)=O)NC(=O)[C@H](CO)NC3=O)C(=O)N[C@@H](C(C)C)C(=O)N2 (stereo partly shown) [fluorine-18 labelled] |  | nude mice U-87 MG xenograft, muscle | intravenous, 2.5 h |  | tissue uptake | 0.25 ± 0.04 %ID/g
CN[C@@](C)(C[18F])C(=O)O |  | SCID mouse MDA-MB-468 xenograft, brain | 60 min, post injection |  | tissue uptake | 0.3 ± 0.01 %ID/g
O[C@H]1CCCN[C@@H]1CCCn1cnc2c(Cl)c(Cl)ccc21 |  | healthy human volunteers, plasma | oral, 25 mg, day 1, multiple ascending dose |  | AUC(0-tau) | 94.3 ng·h/mL
Cc1cnc(C(=O)N[C@H]2CCCCC/C=C\[C@@H]3C[C@@]3(C(=O)NS(=O)(=O)C3CC3)NC(=O)[C@@H]3C[C@@H](Oc4nc5ccccc5c5ccccc45)CN3C2=O)cn1 |  | healthy human volunteers, plasma | oral, dose not given, together with: escitalopram plus 2D regimen |  | AUC(0-24) | 2760 ng·h/mL
COc1ccc2c(c1)[nH]c1c(C)nccc12 |  | Sprague Dawley rat, plasma | oral, 60 mg/kg | reference: intravenous 20 mg/kg | oral bioavailability | 29.2%
CC(=O)N[C@H](CCCCNC(=O)C(C)F)C(=O)N[C@@H](CS)C(=O)N[C@@H](CS)C(=O)N[C@@H](CCC(=O)O)C(=O)N[C@@H](Cc1c[nH]cn1)C(=O)N[C@H](Cc1ccccc1)C(=O)N[C@@H](CCCNC(=N)N)C(=O)N[C@@H](Cc1c[nH]c2ccccc12)C(=O)N[C@@H](CS)C(=O)N[C@@H](CCCNC(=N)N)C(=O)N1CCC[C@H]1C(=O)N[C@H](C(N)=O)C(C)C (stereo partly shown) [fluorine-18 labelled] |  | C57BL/6 mice, male, B16-F10 tumour, lung | intravenous, 4 h |  | tissue uptake | 0.31 ± 0.07 %ID/g
[123I]c1cncc(OC[C@@H]2CCN2)c1 | SPECT | human, frontal lobe | intravenous bolus plus infusion, 5.2 mCi | reference: tissue over plasma | tissue/plasma ratio | 19.9
Nc1nc2c(c(=O)[nH]1)N(C=O)C(CNc1ccc(C(=O)N[C@@H](CCC(=O)O)C(=O)O)cc1)CN2 (stereo partly shown) |  | human advanced solid tumours | intravenous, every 2 weeks, together with: FOLFOX |  | MTD | 400 mg/m²
CC(C)C[C@H](NC(=O)[C@H](CCC(=O)O)NC(=O)[C@H](CCC(=O)O)NC(=O)[C@H](CC(=O)O)NC(=O)[C@H](CCC(=O)O)NC(=O)[C@H](CCC(=O)O)NC(=O)[C@H](CCC(=O)O)NC(=O)[C@@H](N)CC(=O)O)C(=O)O |  | rat, plasma | subcutaneous, 11.0 mg/kg, 15 min |  | concentration | 3090 ng/mL
COc1cc2cc(-c3ccc(CC(=O)Nc4cc(C(C)(C)C(F)(F)F)no4)cn3)cnc2cc1OC | CPK increase or myositis | human patients | oral, dose not given, with dose interruption |  | time to resolution | < 2 weeks
CCCCCCCCCCCCCCCCCC[N+](C)(C)C | in vitro-in vivo extrapolation | human |  |  | hepatic clearance | 0.1 mL/h/g liver
C[N+](C)(C)[C@@H](Cc1c[nH]c(=S)[nH]1)C(=O)[O-] |  | rat treated with 1,25-dihydroxyvitamin D3, brain | intravenous | reference: untreated control rats | decrease in tissue partition coefficient | 39.4%
CNC(=O)c1ccc(-c2cnn3ccc(C(=O)N(C)c4ccc(Cl)c(C(=O)OC)c4)cc23)cc1 |  | rat, Wistar or Sprague Dawley, male, plasma, hepatic portal vein | oral, 100 mg/kg |  | Cmax | 531 nM
CCCCCOc1ccc(-c2ccc(-c3ccc(C(=O)N[C@H]4C[C@@H](O)[C@@H](O)NC(=O)[C@@H]5[C@@H](O)[C@@H](C)CN5C(=O)[C@H]([C@@H](C)O)NC(=O)[C@H]([C@H](O)[C@@H](O)c5ccc(O)cc5)NC(=O)[C@@H]5C[C@@H](O)CN5C(=O)[C@H]([C@@H](C)O)NC4=O)cc3)cc2)cc1 |  | adult patients | iv, dose not given, 2, during treatment |  | patients with hepatic adverse events | 9.1%
eremomycin | pseudoallergic reaction | male CBA mouse | intravenous, maximum tolerated dose, together with: concanavalin A | reference: control group | inflammation reaction index | 42.7%
CCCCCCCCCCCC(=O)NCCCC[C@H](NC(=O)[C@@H](NC(=O)[C@@H](NC(=O)[C@H](C)NC(=O)[C@H](C)NC(=O)[C@H](CCCCN)NC(=O)[C@H](CCCCN)NC(=O)[C@H](CS)NC(=O)[C@H](CCCCN)NC(=O)[C@@H]1CCCN1C(=O)[C@H](CC(C)C)NC(=O)[C@@H](NC(=O)[C@H](Cc1c[nH]c2ccccc12)NC(=O)[C@H](CC(C)C)NC(=O)[C@@H](N)CCCCN)C(C)C)C(C)C)C(C)C)C(N)=O | three-compartment model | Sprague Dawley rat, plasma | intravenous, 2.5 mg |  | fast intercompartmental clearance | 5 mL/h
O=C(c1ccc(F)c(F)c1Nc1ccc(I)cc1F)N1CC(O)([C@@H]2CCCCN2)C1 | measured: retinal detachment | human patients | oral, dose not given, dose escalation, suspension, grade G1 |  | treatment-related adverse events | 8%
Cc1c(P(=S)(c2ccccc2)c2ccccc2)n2ccccc2[n+]1C/C=C/c1ccccc1 |  | mouse, plasma | intraperitoneal, 10 mg/kg, 1 h |  | plasma concentration | 259 ng/mL
O=S(=O)([O-])[O-].[O]=[V+2] | measured: total vanadium | human, serum | oral, 25 mg V/day as VOSO4, 6 weeks |  | steady-state concentration | 16.9 ng/mL and 13.9 ng/mL
CC[C@H](C)[C@H](NC(=O)[C@@H](N)CCCNC(=N)N)C(=O)N[C@H](C(=O)N1CCC[C@H]1C(=O)N[C@@H](C)C(N)=O)C(C)C |  | healthy volunteers, both sexes, plasma | intravenous infusion, 0.5 mg/kg daily, day 7, multiple ascending dose |  | AUC(0-t) | 89 ± 14 ng·h/mL
COc1cccc2c1cc([N+](=O)[O-])c1c(C(=O)O)cc3c(c12)OCO3 | HPLC | rat (Wistar, male), urine | subcutaneous, 2 mg, 24 h collection |  | urine concentration | 0.2 µM
Cc1ccc(Nc2ccc3c(c2)C(c2ccccc2F)=NC(C)C(=O)N3)c(C)c1 (stereo not shown) | shake flask | PBS | 24 h, pH 7.4 |  | solubility | 1.38 µM (≈ 0.535 µg/mL)

For quick reference, copied from above:
Molecule | test | test system | conditions | how to read | measurement | value
Cc1cnc(C(=O)N[C@H]2CCCCC/C=C\[C@@H]3C[C@@]3(C(=O)NS(=O)(=O)C3CC3)NC(=O)[C@@H]3C[C@@H](Oc4nc5ccccc5c5ccccc45)CN3C2=O)cn1 |  | healthy human volunteers, plasma | oral, dose not given, together with: escitalopram plus 2D regimen |  | AUC(0-24) | 2760 ng·h/mL
